Measurements collected from several papers.
Every numbered part comes from another study and shows a few of its results, in no order.

Sample 1 — technique: RNA Bind-n-Seq; molecule type: RNA; matrix: in vitro; concentration: 365 nM; reference: no-protein control; reading: higher = stronger binding
Target: RNA binding protein fox-1 homolog 2, RRM domain, GST-SBP tag (RBFOX2, Homo sapiens, UniProt O43251-10, residues 100-194)
Setting: natural RNA segment, single round, ends assumed
Shared flanks, not repeated: GGGAGUUCUACAGUCCGACGAUC … UGGAAUUCUCGGGUGCCAA
Oligonucleotide	RBNS enrichment (R)
CCUAAGUUUUGAGGUGGGGUGAUGGCCCUCUACUUCCCUGUUUAUAGUCUAACUCACCUAUUAACCUCUCUCAUCCUGGGUCAUCCUCCCUCCUUUCUCAGUGUCUGAUU	0.486
GAUGAUAUUCAGUCUGAUGUUCCGCAAUUUUAAAAGUUAUAAUAAAAUACCAUUUUUUUAAUCUGGAGGACAUUGAUAUAUGAAUUCUUAGAAUUUGCUAUUAAAAAGGG	0.456
AAAAAGAAAAACAAUGAAAAAAAAUAAAGACACCGCCAUCACCUAUUUAAAUAUCCACUGUGUGUGUCACAAAGUUGUUCUUUUGAGUGCAAUAAAGAUAGCUUAACACA	0.93
CAGCUGUAAUUCUUCCAGCUCUCUCCAAAAGCACCAGUUCUUAUCUUGGGCCUGCACUAGGCUUUAGAAAUGACAGUUUGUGAGUCUAUGAAUAAUUAUUUUUUAAAAAA	0.634
ACACUCAGCCAGGCCUGUCAUGAUUGGCUUUAUUUCUUUCAUCAUUCAUAAAAGUUUGCAUGUGUUUUUAUUCUCUAGAUCUGUUACCAAUAUAGUUUUCUAACUCCUGU	6.84
AGACCAUGCCCACUGGAUAGAUGGGCAGAGAACCAGCACCUAAAGAACACCUACUGUGUGCCAGGCACUUUACAUCCCCCCCUCAGUGUCUACCUAGUCUGCUGGGCUGA	0.493
ACAGACAUACCAUAGGGGUAAGGAACUGAAUGCUGUAAAGGAGUCGGUUCUCAUCUCAGGUUGGUAUCUUUCAUCCAGUCCAAAAUGCAAGCGGCACUAAUGAAUUGUUC	0.694
CUGGCACGCUCUGCUCCAGGCUCUGACUCAGGGGUGGCUGAGCCUCAUGCUCCCAGAACCAUGCAUGGGGCAGCUAGGAUCCAUUUGUCUGUUGGAAAUGUUUGUAGCUU	1.26

Sample 2 — technique: protein binding microarray; molecule type: double-stranded DNA, one strand shown; matrix: in vitro; concentration: not given; reference: not given; reading: higher = stronger binding
Target: Histone acetyltransferase KAT6A, both winged helices, GST fusion (KAT6A, Homo sapiens, UniProt Q92794, residues 1-181)
Setting: 8-mer, flanks averaged, mean of 2 arrays, mostly near background
Construct (chain): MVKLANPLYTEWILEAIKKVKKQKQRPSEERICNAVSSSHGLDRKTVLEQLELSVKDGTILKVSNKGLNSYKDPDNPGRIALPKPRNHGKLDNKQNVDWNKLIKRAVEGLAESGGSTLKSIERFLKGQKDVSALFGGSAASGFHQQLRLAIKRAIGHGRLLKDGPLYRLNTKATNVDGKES
Oligonucleotide	E-score
CAAAACTC	-0.0217
ATGCTAGG	-0.0921
GGGGAGAC	-0.0282
AATACCGA	0.0807
GACCTGCC	-0.0979
CAGAAAGC	-0.0337
CATTTTCA	-0.157
CAGAAATG	-0.0486
CGTCTTCC	0.0517
GCGTGATA	0.183
ATGGGTCA	-0.203
CAGCGCAA	0.188
ATTTAAAA	-0.0242
AAACTACG	0.0943
GGGAGCGA	-0.0127
ACGTCCAT	-0.0524
GCACAACA	-0.022
AGAACACT	-0.00403
AAAGGGGA	-0.121
AGCGCGTA	0.33
AAGTTCCA	-0.0475
CAGGTTAC	-0.0418
CAGACGAA	-0.087
TAAACAAA	-0.0515
CTAACAAA	-0.0929

Sample 3 — technique: RNA Bind-n-Seq; molecule type: RNA; matrix: in vitro; concentration: 200 nM; setting: whole 134-nt RNA, ends assumed; added: 150 mM LiCl; reference: input library; reading: higher = stronger binding; library: 7-deaza-guanosine replaces G
Target: Fragile X messenger ribonucleoprotein 1, C-terminal low-complexity region (Fmr1, Mus musculus, UniProt P35922)
Shared flanks, not repeated: GGGAGUUCUACAGUCCGACGAUC … UGGAAUUCUCGGGUGUCAAGG
Oligonucleotide	log2 enrichment
CACAGACAACACGCACCCACACAGACACAGAGGGAAGGGGUUGGGAAGGGGACAGGGUGCACAGCAGGGCGGGGUAGGACCCCAGCCCCU	0.566
GCAGGAAGUAAAAACAAAUGGAAAUGCUUCGGAUAGUGUCAGGGGUGGGGGUUGCUAAGGAAAGGGUGGGAUGGGAGUGGGUAAAGAGUU	1.46
AAGUCCUGUGCUACACAUCGUAUGUACCGAAUCGGGUUUGGGUUUGGGAAAAAGGGAAAGUAUUAUGUUACGCCGUUCGGAUCUGCACUU	-1.63
CACAGACAACACGCACCCACACAGACACAGAGGGAAGGGGUUGGGAUGGGGACAGGGUGCACAGCAGGGCGGGCUAGGACCCCAGCCCCU	0.629
GUCCUGUGCUACACAUCGUAUGUACCGAAUCGGCCCCCGGGGCCCCCGGGCCCCCGGGAAAGUAUUAUGUUACGCCGUUCGGAUCUGCAC	-2.56
AAGUCCUGUGCUACACAUCGUAUGUACCGAAUCGGUUUUUGGUUUGGAAAAAAAGGAAAGUAUUAUGUUACGCCGUUCGGAUCUGCACUU	-2.77
CCUCAAGUCCUGUGCUACACAUCGUAUGUACCGAAUCGGCCGGCCGGCCGGGAAAGUAUUAUGUUACGCCGUUCGGAUCUGCACUUCCAG	-0.112
AGUCCUGUGCUACACAUCGUAUGUACCGAAUCAAAUUUUUAAACCCAAACCCCCAAAAAAGUAUUAUGUUACGCCGUUCGGAUCUGCACU	0.982

Sample 4 — technique: RNA Bind-n-Seq; molecule type: RNA; matrix: in vitro; concentration: not given; reference: input RNA pool; reading: higher = stronger binding
Target: RING finger protein unkempt homolog, zinc fingers 1-6, GST-SBP tag (UNK, Homo sapiens, UniProt Q9C0B0, residues 30-357)
UniProt Q9C0B0, sequence (30-357, looked up): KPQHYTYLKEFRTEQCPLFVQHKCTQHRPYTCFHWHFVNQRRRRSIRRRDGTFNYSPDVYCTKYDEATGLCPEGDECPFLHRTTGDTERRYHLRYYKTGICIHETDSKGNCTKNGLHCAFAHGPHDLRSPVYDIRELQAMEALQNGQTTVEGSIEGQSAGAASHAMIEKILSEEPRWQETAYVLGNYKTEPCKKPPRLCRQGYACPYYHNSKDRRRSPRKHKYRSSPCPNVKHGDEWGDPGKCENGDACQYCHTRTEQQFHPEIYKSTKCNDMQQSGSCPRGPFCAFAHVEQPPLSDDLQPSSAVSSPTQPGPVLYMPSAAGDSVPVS
Setting: RNA with constant flanks, human-mouse chimeric sites, ends assumed
Shared flanks, not repeated: GGGAGUUCUACAGUCCGACGAUC … CAACAGAGGAUUGAGCAUCA
Oligonucleotide	bound/input enrichment
GAUCAUGAACCACCAUCAGAAAUGAAGAUGAGAUUACCCAGACGAGCCAAAACAGCUGCGCUACAGAAAAGUAAACUUAACCUUGCACCAAUUUCUCAUGAAGAUACUAAGUUAGGAAGC	0.47 ratio
CCCCAAUACCAUUUGCAGGUCUGGAACUGCACUCUCUUUUUUAAAAAAUAUGCAUAUAUUUUAGGGCUGUAGAUUUAUUUUCCUGGUUUCUUUUCCAAUUGCUGACUUUUGAGCACAGAA	1.47 ratio
CAGACUGUGUCAUACUUUUUAGACAUUCACAUCAGACUUACAGAGCACCUGGCCACAUUCUAGGUUUGUGUUAUUUCUCAGCUAUGGAUAUGAUCAAAUGAGAACACUGCUUAACUAAUG	0.558 ratio
ACACAAUAUGAGACCAACAGCAUGGACUUCAAAGUUGGGGCAGAUGGGACAGUCUUCGCCACCCGGGAGCUGCAGGUCCCCUCCGAGCAGGUGGCGUUUACCGUCACUGCGCGGGAAAGC	0.188 ratio
CACAGAGGCACCACCCCCCCCUCCUCCUUUCCACACCUGCAAACUCUUUUGCCUGGGCUGAAUAUUUAGUGUAAUUACAUCUCAGCUUUGAGGGCUCCUGUGGCAAAUUCCCGGAUUAAA	1.12 ratio
UAAGUUAUUUUGUACAGUAAGUUAUUUUGUAUAGCUUUUUAUAUUGCCAUGUUUAUUUUGUUUGGGUAAUUUGGUUCAUUAAGUACAUAGCUAAGGUAAUGAACAUCUUUUUCAGUAAUU	2.15 ratio
CUGUGACCACAAGAUCCUACCUGAGUGGCAGCUGAAGUUGACUCCCUCUCCUUGCCUGCCUAGUUUCCCACUGCCCCCCCAUCCCCCAGUGUCGGCUGAGAUGUUGCCAGCAGACAGUUC	0.389 ratio
AAAGUGGACUAUGGCGAGUACAUGGAUAAAAAUAAUGUGAGGCGACAAGCAACAACAAUCAUAGCUGAUAACAUUAUAUUUCUGAGUGACCAGACAAAAGAAAAGGCAUAGAACGGAUGA	1.49 ratio

Sample 5 — technique: universal PBM; molecule type: double-stranded DNA, one strand shown; matrix: in vitro; concentration: 600 nM; reading: higher = stronger binding
Target: Sal-like protein 4, full length isoform A (SALL4, Homo sapiens, UniProt Q9UJQ4, residues 1-1053)
UniProt Q9UJQ4, sequence (whole entry, looked up): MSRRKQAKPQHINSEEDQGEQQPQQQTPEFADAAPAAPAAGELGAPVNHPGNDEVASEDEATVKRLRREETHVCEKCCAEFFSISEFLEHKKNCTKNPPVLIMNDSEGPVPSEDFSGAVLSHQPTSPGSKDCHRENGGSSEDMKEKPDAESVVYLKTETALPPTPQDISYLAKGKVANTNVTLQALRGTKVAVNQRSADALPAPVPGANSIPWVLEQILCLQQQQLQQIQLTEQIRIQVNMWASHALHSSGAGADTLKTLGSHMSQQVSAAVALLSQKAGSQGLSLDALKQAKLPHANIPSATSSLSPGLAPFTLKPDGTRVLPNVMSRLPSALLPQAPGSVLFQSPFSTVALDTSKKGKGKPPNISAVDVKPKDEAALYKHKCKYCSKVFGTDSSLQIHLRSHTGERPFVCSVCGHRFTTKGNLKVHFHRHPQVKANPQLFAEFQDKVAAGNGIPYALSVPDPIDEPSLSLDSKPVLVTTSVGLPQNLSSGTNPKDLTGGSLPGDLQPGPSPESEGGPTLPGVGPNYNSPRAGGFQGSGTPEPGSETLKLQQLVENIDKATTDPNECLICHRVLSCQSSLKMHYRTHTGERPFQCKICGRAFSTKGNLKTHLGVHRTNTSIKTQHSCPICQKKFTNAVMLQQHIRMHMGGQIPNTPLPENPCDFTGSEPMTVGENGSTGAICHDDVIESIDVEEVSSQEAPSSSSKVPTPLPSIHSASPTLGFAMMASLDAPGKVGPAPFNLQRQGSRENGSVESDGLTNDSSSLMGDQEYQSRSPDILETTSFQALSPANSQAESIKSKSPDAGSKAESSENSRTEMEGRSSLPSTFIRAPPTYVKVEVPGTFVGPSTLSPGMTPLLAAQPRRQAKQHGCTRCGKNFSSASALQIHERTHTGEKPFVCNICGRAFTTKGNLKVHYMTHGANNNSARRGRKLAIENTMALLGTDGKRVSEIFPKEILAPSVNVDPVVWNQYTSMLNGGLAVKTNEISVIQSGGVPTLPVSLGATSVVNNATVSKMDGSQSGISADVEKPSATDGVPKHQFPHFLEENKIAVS
Setting: 8-mer, flanks averaged, mean of replicates
Oligonucleotide	E-score
GACCTACC	-0.249
AAAGATCG	0.0142
CGCAGCGC	-0.221
GAAAAACC	0.0557
TCTGCAGA	-0.0372
TCAGAGAA	0.123
AGGGCGAG	-0.311
GAATCCTC	-0.179
CCCAGGTC	-0.277
CTTTACAA	0.132
TATCACGA	0.169
CTATTTGC	0.205
CGCTTACC	-0.0383
CGGAGAAG	-0.183
CTATCTGA	0.00737
CCTAGGCG	-0.28
AAAAAGGT	0.051
CGTAGTGA	-0.187
ACGAGGCA	-0.0234
AGTGCAAC	-0.107

A few entries again (sample 3):
Oligonucleotide	log2 enrichment
AAGUCCUGUGCUACACAUCGUAUGUACCGAAUCGGUUUUUGGUUUGGAAAAAAAGGAAAGUAUUAUGUUACGCCGUUCGGAUCUGCACUU	-2.77
CACAGACAACACGCACCCACACAGACACAGAGGGAAGGGGUUGGGAAGGGGACAGGGUGCACAGCAGGGCGGGGUAGGACCCCAGCCCCU	0.566
CCUCAAGUCCUGUGCUACACAUCGUAUGUACCGAAUCGGCCGGCCGGCCGGGAAAGUAUUAUGUUACGCCGUUCGGAUCUGCACUUCCAG	-0.112
CACAGACAACACGCACCCACACAGACACAGAGGGAAGGGGUUGGGAUGGGGACAGGGUGCACAGCAGGGCGGGCUAGGACCCCAGCCCCU	0.629
GCAGGAAGUAAAAACAAAUGGAAAUGCUUCGGAUAGUGUCAGGGGUGGGGGUUGCUAAGGAAAGGGUGGGAUGGGAGUGGGUAAAGAGUU	1.46
AAGUCCUGUGCUACACAUCGUAUGUACCGAAUCGGGUUUGGGUUUGGGAAAAAGGGAAAGUAUUAUGUUACGCCGUUCGGAUCUGCACUU	-1.63
AGUCCUGUGCUACACAUCGUAUGUACCGAAUCAAAUUUUUAAACCCAAACCCCCAAAAAAGUAUUAUGUUACGCCGUUCGGAUCUGCACU	0.982
GUCCUGUGCUACACAUCGUAUGUACCGAAUCGGCCCCCGGGGCCCCCGGGCCCCCGGGAAAGUAUUAUGUUACGCCGUUCGGAUCUGCAC	-2.56
